# Experimental data from different studies.
# Every numbered part comes from another study and shows a few of its results, in no order.

# Block 1
# Target: Histone acetyltransferase KAT6A, both winged helices, GST fusion (KAT6A, Homo sapiens, UniProt Q92794, residues 1-181)
# Method: protein binding microarray
# Form: double-stranded DNA, one strand shown
# Matrix: in vitro
# Tested at: not given
# Setting: 8-mer, flanks averaged, mean of 2 arrays, mostly near background
# Relative to: not given
# Direction: higher = stronger binding
# Construct (chain): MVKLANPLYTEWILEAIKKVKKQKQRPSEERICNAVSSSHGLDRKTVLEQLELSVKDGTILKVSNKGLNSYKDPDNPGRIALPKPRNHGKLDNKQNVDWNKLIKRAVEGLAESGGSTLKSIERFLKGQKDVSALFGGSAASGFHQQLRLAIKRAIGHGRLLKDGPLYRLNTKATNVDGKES
Sequence,E-score
GGGCCAGA,-0.127
CTAACTAA,-0.0348
CAGCGATG,0.00517
ATTATCGA,-0.106
AACTGCGC,0.243
AACCCGTG,0.287
CGCATTAG,0.0878
AAAACCAT,-0.0577
ACATAGGG,-0.241
TGCGACCA,0.0193
AAGTGCAC,-0.0508
CGACATAC,0.183
CTGATCAG,-0.0592
AGGGTGAC,-0.0735
GAGGATGA,-0.0802
CAGGGCTA,-0.134
CGACGACG,0.219
AGCGCCGA,0.33
GCCCTGCC,-0.00175
AATCGTCT,0.0333
ATCCAGTC,-0.118
ACTCCCGC,0.267
ATGGTTGA,-0.0996
CCCCCAGC,-0.134
CCTGCTGA,-0.15

# Block 2
# Target: Ras GTPase-activating protein-binding protein 1, full length (G3BP1, Homo sapiens, UniProt Q13283)
# Chain of UniProt Q13283 (whole entry, looked up): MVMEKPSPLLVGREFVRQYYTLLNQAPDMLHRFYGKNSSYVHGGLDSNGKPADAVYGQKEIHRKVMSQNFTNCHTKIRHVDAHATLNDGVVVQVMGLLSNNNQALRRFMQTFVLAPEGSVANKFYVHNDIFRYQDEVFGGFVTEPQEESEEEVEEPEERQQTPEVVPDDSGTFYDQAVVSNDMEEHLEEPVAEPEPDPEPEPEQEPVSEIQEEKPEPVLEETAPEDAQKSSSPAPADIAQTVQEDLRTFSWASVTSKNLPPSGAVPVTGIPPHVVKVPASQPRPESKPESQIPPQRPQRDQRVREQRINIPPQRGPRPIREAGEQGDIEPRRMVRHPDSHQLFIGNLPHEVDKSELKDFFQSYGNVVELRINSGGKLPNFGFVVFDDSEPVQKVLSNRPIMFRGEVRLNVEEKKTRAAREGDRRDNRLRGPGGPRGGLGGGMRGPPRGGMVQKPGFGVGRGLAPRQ
# Method: RNA Bind-n-Seq
# Form: RNA
# Matrix: in vitro
# Tested at: 200 nM
# Setting: whole 134-nt RNA, ends assumed
# Together with: 150 mM LiCl
# Relative to: input library
# Direction: higher = stronger binding
# Each molecule: 7-deaza-guanosine replaces G
Sequence,log2 enrichment
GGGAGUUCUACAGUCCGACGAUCCCUCAAGUCCUGUGCUACACAUCGUAUGUACCGAAUCGGGGUGGUGGGGUGGAAAGUAUUAUGUUACGCCGUUCGGAUCUGCACUUCCAGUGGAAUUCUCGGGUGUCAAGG,-0.168
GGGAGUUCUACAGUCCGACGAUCCACAGACAACACGCACCCACACAGACACAGAGGGAAGGGGUUGGAAUGGGGACAGGGUGCACAGCAGGGCGGGGUAGGACCCCAGCCCCUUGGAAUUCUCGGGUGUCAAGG,-1.08
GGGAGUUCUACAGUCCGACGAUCCCUGUGCUACACAUCGUAUGUACCGAAUCAAAUUUUUAAACCCCCCCAAACCCCCCCAAAAAAGUAUUAUGUUACGCCGUUCGGAUCUGCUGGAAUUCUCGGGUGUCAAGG,0.302
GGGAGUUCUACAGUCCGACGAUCCUGUGCUACACAUCGUAUGUACCGAAUCGGGGCCCCCCCGGGGCCCCCCCGGCCCCCCCGGAAAGUAUUAUGUUACGCCGUUCGGAUCUGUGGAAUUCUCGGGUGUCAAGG,0.636
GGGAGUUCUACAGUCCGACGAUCCUGUGCUACACAUCGUAUGUACCGAAUCGGGAAAAAAGGGGAAAAAAGGGGAAAAAAGGGGAAAGUAUUAUGUUACGCCGUUCGGAUCUGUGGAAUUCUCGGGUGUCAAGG,0.458
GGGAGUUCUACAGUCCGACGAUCGUCCUGUGCUACACAUCGUAUGUACCGAAUCGGGUUUUUGGGGUUUUUGGGGUUUUUGGAAAGUAUUAUGUUACGCCGUUCGGAUCUGCAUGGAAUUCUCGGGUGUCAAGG,-0.111
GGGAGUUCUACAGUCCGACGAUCUCCUGUGCUACACAUCGUAUGUACCGAAUCGGAAAAAAGGGGAAAAAAGGGAAAAAAGGGAAAGUAUUAUGUUACGCCGUUCGGAUCUGCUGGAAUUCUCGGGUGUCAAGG,-0.115
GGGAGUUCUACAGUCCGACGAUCGUCCUGUGCUACACAUCGUAUGUACCGAAUCGGGGAAAAAAAGGGGUGGGGAAAGGGGAAAGUAUUAUGUUACGCCGUUCGGAUCUGCACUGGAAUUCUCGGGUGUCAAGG,-0.193

# Block 3
# Target: PABPC1L2, full length, GST fusion (mouse, UniProt A0ABA7IW68)
# Method: RNAcompete
# Form: RNA
# Matrix: in vitro
# Tested at: 20 nM
# Setting: 7-mer, probes averaged, single round
# Relative to: mean of 7-mers
# Direction: higher = stronger binding
# Residues (chain): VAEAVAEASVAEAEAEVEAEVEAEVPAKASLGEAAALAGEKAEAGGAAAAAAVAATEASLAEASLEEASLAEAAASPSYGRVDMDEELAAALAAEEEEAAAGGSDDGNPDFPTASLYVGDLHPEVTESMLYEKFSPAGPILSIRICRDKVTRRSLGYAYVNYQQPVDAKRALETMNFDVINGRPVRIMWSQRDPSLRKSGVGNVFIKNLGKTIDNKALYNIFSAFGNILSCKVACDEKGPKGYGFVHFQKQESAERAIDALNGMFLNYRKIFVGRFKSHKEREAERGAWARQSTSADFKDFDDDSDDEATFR
Sequence,7-mer Z-score
ACUCUAU,-0.141
ACGCGGG,0.233
GAGUGCU,-0.15
ACAGUAU,-0.0536
GCGGUUG,-0.0971
GGGCGGU,0.401
CAUCUUC,-0.434
CUUUUUU,-0.0681
AGUGGUC,-0.199
UAACAAC,-0.0264
GUAUCCA,-0.224
CUGUUCA,-0.4
CUCGGAA,-0.0863
GGGAGCU,0.153
UUCGGUA,-0.235
CUAAUGU,-0.213
UCGGAAG,-0.171
CAAACUC,-0.0355
GAUACUG,-0.17
GAAAAUU,2.97
CAGCCUA,-0.327
AACGUGG,0.407
AGUUGUG,-0.253
GAGCGAC,0.104
CCAGCCU,-0.472

# Block 4
# Target: RNA binding protein fox-1 homolog 2, RRM domain, GST-SBP tag (RBFOX2, Homo sapiens, UniProt O43251-10, residues 100-194)
# Method: RNA Bind-n-Seq
# Form: RNA
# Matrix: in vitro
# Tested at: 365 nM
# Setting: natural RNA segment, single round, ends assumed
# Relative to: no-protein control
# Direction: higher = stronger binding
# Residues (chain): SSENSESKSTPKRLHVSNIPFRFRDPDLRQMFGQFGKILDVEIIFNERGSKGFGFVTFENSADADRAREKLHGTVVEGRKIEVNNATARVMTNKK
Sequence,RBNS enrichment (R)
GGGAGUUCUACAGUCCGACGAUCCAUUGGAAGCCAGACUUGAUUCUGAGACAUGUUGAAUUGCUUUUUCCUCUCCCAUCAAAUGGCAUUAACACAAUUGGUAAAGAUGGUCCCUCAAAUGACUCCCCCCCCCCUGGAAUUCUCGGGUGCCAA,0.592
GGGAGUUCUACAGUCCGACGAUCCCUGUGUCUAUGUGUAUGUACACAUACUUCUGUCAGAGAGAGAGAGACACCCACCAUGGGUCUUUGAUGCUAGAUAAGCCUAGAGGGAAGAUAAAGGGGCAGGAUCAAGGUGGAAUUCUCGGGUGCCAA,0.747
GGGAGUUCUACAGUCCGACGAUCAAUAUGUAGCUAACAAAUUGACCUAGUUUCUGUAUUUUUUUGUUUUUGUACUAAAGUUUAUAGGUCUGUGCCAGCUAGAGAGAAGUUGCUGUCAUUACCAGUUGUGGUCCUGGAAUUCUCGGGUGCCAA,0.799
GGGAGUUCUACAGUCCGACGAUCUGCGGCUAGCUGAUUUUGGGGUACUUCAUAGGAACGAGCUGUCUGGAGCACUCACAGGACUCACCCGGGUACGAAGAUUCCAACAGGAUGAUGCUCACAUAUUCUGUGCCUGGAAUUCUCGGGUGCCAA,0.329
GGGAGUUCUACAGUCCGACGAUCGGGUGCCUCCUCCCCAGGUGGAGGUGCCAGGAAGCUCCCUCCCUCACUGUGGGGCAUUUCACCAUUCAAACAGGUCGAGCUGUGCUCGGGUGCUGCCAGCUGCUCCCAAUUGGAAUUCUCGGGUGCCAA,0.364
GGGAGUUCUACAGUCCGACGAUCCUUAUCCCAGCUUUACAAAAACUCUUCAUGUGAAUCUUAACUUGCAAAAGGAGAAAGAUAAAAUACAGAAGACUGGCCCCAGAGAGACCUCAGAUCAGUAUUGUGCAUUGUGGAAUUCUCGGGUGCCAA,0.435
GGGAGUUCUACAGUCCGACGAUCAUUGUUUACUGGUUAUCUCUAUUUAAGGAAAAAAAAUAAAAUAAAACAUUUUGGAUUUUCAUAUGUGUCUGAUAAGUGGUUGUAUAGUCGUUUGGCGCUGUUGUAUGGUGUGGAAUUCUCGGGUGCCAA,1.06
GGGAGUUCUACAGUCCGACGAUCGAGGCCAAGAUUUUUCUGCACACGGAGUGUGGGGAUAGGAGCCGGGCCAAGCGCUGGCCCCUCAGCGGUGAGCCCUGCCCACUCUUACCGAGCAAGGUGGGUGGCUCUGGUGGAAUUCUCGGGUGCCAA,0.36
